Measurements of several laboratories.
Each numbered part is a random draw from the data of one study; scales do not carry over between parts. Positions count from the first letter of the parent shown.

Study 1
Target: ABI1, truncated, D143A, DHFR fusion (Arabidopsis thaliana)
Technique: DHFR PCA, deep sequencing
Medium: yeast
Setting: methotrexate growth selection, single substitutions
Together with: (+)-ABA 0.0091 µM
Baseline: wild-type fitted maximum
Direction: higher = stronger binding
Starting sequence: PYL1, truncated, DHFR fusion (Arabidopsis thaliana); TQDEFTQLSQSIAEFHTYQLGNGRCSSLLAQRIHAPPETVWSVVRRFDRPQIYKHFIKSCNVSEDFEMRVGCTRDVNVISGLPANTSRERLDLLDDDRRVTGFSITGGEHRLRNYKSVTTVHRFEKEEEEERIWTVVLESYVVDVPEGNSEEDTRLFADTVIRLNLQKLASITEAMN; partner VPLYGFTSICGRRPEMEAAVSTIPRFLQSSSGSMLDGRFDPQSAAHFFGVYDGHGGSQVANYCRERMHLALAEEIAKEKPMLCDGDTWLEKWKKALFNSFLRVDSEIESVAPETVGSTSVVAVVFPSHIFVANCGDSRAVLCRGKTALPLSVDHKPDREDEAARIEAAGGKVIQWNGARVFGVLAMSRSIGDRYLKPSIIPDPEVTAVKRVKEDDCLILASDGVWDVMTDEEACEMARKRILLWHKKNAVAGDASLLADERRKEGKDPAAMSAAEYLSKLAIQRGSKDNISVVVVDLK
For `P83T`, “relative binding score” read 23.5%.
`H122T` — result for “relative binding score”: 1.25%.
`S87R` — result for “relative binding score”: 66.9%.
For `K58A`, “relative binding score” read 7.75%.
For `L82V`, “relative binding score” read 9.62%.
For `S42H`, “relative binding score” read 1.49%.
Under “relative binding score”, `R132L` is recorded as 17.2%.
Under “relative binding score”, `F5C` is recorded as 9.32%.
`E125Y` — result for “relative binding score”: 25.3%.
For `K126D`, “relative binding score” read 56.8%.
`L94E` — result for “relative binding score”: -10%.
`G102H` — result for “relative binding score”: -11.6%.
For `Q31H`, “relative binding score” read 5.99%.
`V70Q` — result for “relative binding score”: -3.17%.

Study 2
Target: CCNF, cyclin fold, Cln2 fusion (human)
Technique: yeast growth competition, sequencing
Medium: yeast
Setting: strong parent motif
Baseline: not given
Direction: higher = stronger binding
Starting sequence: RBL1 docking peptide (human); GSAKRRLFGEDPP
For `L7Y`, “normalised enrichment score” read -0.337.
`G9D`: “normalised enrichment score” 7.77.
`L7A` — result for “normalised enrichment score”: -0.0608.
`P12V`: “normalised enrichment score” 6.71.
For `P13F`, “normalised enrichment score” read 6.97.
For `P12Y`, “normalised enrichment score” read 8.49.
Under “normalised enrichment score”, `G9Y` is recorded as 8.87.
`R6S`: “normalised enrichment score” 4.73.
`R6W`: “normalised enrichment score” 1.38.
`P13K`: “normalised enrichment score” 6.48.
Under “normalised enrichment score”, `A3I` is recorded as 6.92.
`P13G`: “normalised enrichment score” 7.39.
`D11E`: “normalised enrichment score” 6.82.
For `A3W`, “normalised enrichment score” read 4.76.
`L7P`: “normalised enrichment score” 1.9.
`A3N`: “normalised enrichment score” -0.0231.
`K4T`: “normalised enrichment score” 3.56.
`F8H`: “normalised enrichment score” 0.435.
For `E10V`, “normalised enrichment score” read 6.8.

Study 3
Target: RING finger protein unkempt homolog, zinc fingers 1-6, SBP tag (UNK, Homo sapiens, UniProt Q9C0B0, residues 30-357)
Sequence of UniProt Q9C0B0 (30-357, looked up): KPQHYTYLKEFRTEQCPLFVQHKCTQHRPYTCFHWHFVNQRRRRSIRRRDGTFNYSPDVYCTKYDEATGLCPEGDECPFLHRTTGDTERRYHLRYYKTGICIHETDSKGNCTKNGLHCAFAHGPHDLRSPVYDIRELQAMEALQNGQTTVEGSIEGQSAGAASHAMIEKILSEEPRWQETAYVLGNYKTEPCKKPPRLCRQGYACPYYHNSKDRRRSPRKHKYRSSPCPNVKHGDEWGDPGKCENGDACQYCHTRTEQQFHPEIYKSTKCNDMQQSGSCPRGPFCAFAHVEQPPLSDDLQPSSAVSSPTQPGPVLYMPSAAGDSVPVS
Technique: RNA Bind-n-Seq
Form: RNA
Medium: in vitro
Tested at: 100 nM
Setting: RNA with constant flanks, vertebrate orthologous sites, ends assumed
Baseline: input RNA pool
Direction: higher = stronger binding
`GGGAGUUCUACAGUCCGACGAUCAAAUAUACUUCAUGCCAUGGACUCCAUAUCGCACUGAUACUUUGAUAGAAUAUGCUUCUUUGGAGGACUUCCAAAAUGGACGCCAGCAGACAACGUAUAAACUCCCAAAUCGAGUGGAUGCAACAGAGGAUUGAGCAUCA` gave a bound/input enrichment of 0.829 ratio.
For `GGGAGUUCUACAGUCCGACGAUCUUCAGGCACAACUGACUGGUUCACAGCACUCCUUACAUAGUUAUCUAUCAAAUUCAAGUGUAGUUAAUUUUCAGGAAACAACCAGGCAGUCAUCUUUAUCCUGUAGCCCAAUUGGAGAUUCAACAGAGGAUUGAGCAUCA`, the bound/input enrichment was 1.51 ratio.
`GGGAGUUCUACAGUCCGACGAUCAACUGCUGGAGCAGAGUGCUCUGUCAGCACCAGUGGCCACCAUCCCUUCACACCACUGUCCUACUUACAGGAAUUUAAUAUUUUUAAAAGUUUUACAAUGCUGUAUAUUCAAAGAUUGUUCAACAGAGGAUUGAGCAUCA` gave a bound/input enrichment of 0.293 ratio.
The bound/input enrichment of `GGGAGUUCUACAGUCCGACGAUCUACGCCAGAUACUUUUAACUGUUUUGAAGAUACAAAUAAGCUUUGCUUUUUGCAUUGAAAUAGAAUACUUUUAUAUUAUAAGUGCUUCAAAUGUGUGGAGAUGUUAGUUUGCUCUUACAACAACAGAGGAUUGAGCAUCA` is reported as 0.435 ratio.
For `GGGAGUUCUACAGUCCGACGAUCUUAUCUUAGGAUGAAGCUGUUAAACCAGAUGUCACGAGUCUGGAAAACAGAUGGCCUAUCAAGUUGUUCUUACAGAUUACUCUCCGUGGAACACAAUCCUUUAUACAUCAACGUCACAGUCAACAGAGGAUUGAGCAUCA`, the bound/input enrichment was 0.34 ratio.
With `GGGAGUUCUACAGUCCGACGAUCGGCAGGGCCCAGGCCCCUGCCACUCAGAGUGGCCCACUGGCCACUUCAGCCAGGCCAUUUUGGCUUUGUUUUUUAACAGUGCCCUUAUUACCCUGUAUAUAUGCCUGAUAUUUGGACAUACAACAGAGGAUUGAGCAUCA` the bound/input enrichment was 0.238 ratio.
The bound/input enrichment of `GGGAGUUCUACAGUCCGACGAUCAUUAAAUGCAUAUCAAAUGCUGGAUAUCCCAUUAAACCAUCAUUUAGGAUAGAUGUUUGUUAUAAUUAAGCUACAAAUAGUUAUAAUUAAGCUACAAAUAUUAAACCAGAAAUGCACUGCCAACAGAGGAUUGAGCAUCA` is reported as 0.283 ratio.
With `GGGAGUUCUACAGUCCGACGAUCGUUGCGAUCCCUUCAAUAUACACAGAAAACUAUCAAAGAAAAACUUGCGAGCAAUUGACUUGGAUGAUGCAACUUUUCUAAGUGCCAAGUUUGGAAGGCAGUUUGUACCUGGUUGGAAGCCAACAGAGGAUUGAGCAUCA` the bound/input enrichment was 0.322 ratio.
`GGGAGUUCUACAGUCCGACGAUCCUGAAGCUUUGUGUUUGGCUGCACCUACAUAAACUGCUACAAAUAGAAUAAAGAAUCUCAUAGCCUGUAUCUAUCAUUUAGAUGCAUGGAAAAAUGGGCUUUGCACACAAUGGGUUUGGACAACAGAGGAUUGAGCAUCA` gave a bound/input enrichment of 1.62 ratio.
`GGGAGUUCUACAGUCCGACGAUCAAAUAGUUUUAAGCUUGUUUGCACAGCUUUUUUUUCCAUUGGAAAUGGAAUCCAUUGCCUUAGGUCUUUUUAAAUAGUGUAUUGUUAUCGUCGGGCUGGCUCUACGCUUGAAAUCCAGUUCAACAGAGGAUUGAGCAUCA` has a bound/input enrichment of 1.9 ratio.
The bound/input enrichment of `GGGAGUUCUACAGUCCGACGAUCUUCGUUGUACUGCAAAAUCAUCCUCGCUUUAAGCUAGCCGCCGUGAUUACUAGUCUGUGCUAACAGAAUCAUUUACUACUACCUUUUAAUUAUGUGCUUUGUCUGAUACCUGAAACCAGUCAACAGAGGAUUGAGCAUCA` is reported as 1.22 ratio.

Study 4
Target: RNA binding protein fox-1 homolog 2, RRM domain, GST-SBP tag (RBFOX2, Homo sapiens, UniProt O43251-10, residues 100-194)
Technique: RNA Bind-n-Seq
Form: RNA
Medium: in vitro
Tested at: 365 nM
Setting: natural RNA segment, single round, ends assumed
Baseline: no-protein control
Direction: higher = stronger binding
Construct (chain): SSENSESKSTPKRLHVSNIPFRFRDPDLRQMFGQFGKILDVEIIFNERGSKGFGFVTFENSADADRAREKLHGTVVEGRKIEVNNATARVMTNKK
`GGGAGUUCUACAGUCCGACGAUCCUGCCCUUCACUGGCUAAUCCUGUACUUCUCUCUGUGUUCCUUGAGUGACAGGUGGUAAAACCCUUAAAAAGGGAGGUGUGGGAGGCCCAGGACUUUGGUAACAGGUGAUUGGAAUUCUCGGGUGCCAA`: “RBNS enrichment (R)” 0.35.
Under “RBNS enrichment (R)”, `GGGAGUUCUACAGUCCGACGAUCUUCUAAAAUACCACAUUUCUGAAAUCAUAAAUAAGUUUAUUCAGGUUCUAACCCUUUGCUGUACACAAGCAGACAGAAAUGCAUCUGUUACAUAAAUGAGAAAAAGCUAUUGGAAUUCUCGGGUGCCAA` is recorded as 0.412.
`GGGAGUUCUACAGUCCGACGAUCGAAGAGAUUUUUACAGUAACAUAAAAGCAGAAUUCUUAUGUUGAUAUUAACCUGCAAAUGGACUGUCAGCACCAGGUGGUGUCUUCUAACUCUGGUCCUUACAUCACAGAUGGAAUUCUCGGGUGCCAA`: “RBNS enrichment (R)” 0.298.
`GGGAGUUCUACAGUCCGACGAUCCCCAAGUUGUGUUAAUACUUCAGGUCUGUUUCCCAGACCCAGAAAGCUUUACAGAAAAUCAUUGUAAGACAAUUUAUUAAUUUGAGAAAGUCACCUUGACAGUUCUUUGCUGGAAUUCUCGGGUGCCAA` — result for “RBNS enrichment (R)”: 0.84.
`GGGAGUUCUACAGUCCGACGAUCGGAAAAGAUGCCAUAUCCCUCUAAAUCUAGUGAUUAGACCUAGGAUCACCCUGUCUCUUUACCACUAACCUGUGAGGUGUCGUCACCAGAGGACACCUGAGGCCUUGACAUGGAAUUCUCGGGUGCCAA` — result for “RBNS enrichment (R)”: 0.225.
`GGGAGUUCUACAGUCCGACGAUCACCUCCUGCCAUUCAGUGAGCACUAGGACAGCUGGGACCUCCUGCCAUUCAGUGAGCACUAGGACAGCUGGGACCUCCUGCCAUUCAGUGAGCACUAGGACAGCUGGGGGUGGAAUUCUCGGGUGCCAA` — result for “RBNS enrichment (R)”: 0.199.
`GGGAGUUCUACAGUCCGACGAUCUCUCAUAGGACGGAGGGGGAAAUGGUUUCCCUCCAAGCUUGGGUCAGUGUGUUAACUGCUUAUCAGCUAUUCAGACAUCUCCAUGGUUUCUCCAUGAAACUCUGUGGUUUUGGAAUUCUCGGGUGCCAA` — result for “RBNS enrichment (R)”: 0.285.
Under “RBNS enrichment (R)”, `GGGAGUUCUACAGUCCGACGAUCUAAAUCUGGCCCUUGGAACUACAACCCAGAGGAAGUUCGUGCUGUUCUGGAAAAGCUCCACAGUUAAUCUGGACAGAUACCUCAAUUCUAGGUGACCAACGGGAGGGCUUUGGAAUUCUCGGGUGCCAA` is recorded as 0.264.
`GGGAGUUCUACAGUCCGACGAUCUCUCUGGGCCUCUAUUUCUCCAUUUGUAAAACAAGUGGCUGCAGUAGAUGAUGGCUGAGAGCCCUUCCUGUUCCCAGAUGCCUUGGUCCAAAGACCCCACCCCUCUGCUGUGGAAUUCUCGGGUGCCAA` — result for “RBNS enrichment (R)”: 0.222.
`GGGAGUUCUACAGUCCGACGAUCCACCAUGGCCGAGCUUCAUGUCACAUGGCCUGGCGAUUGUGCUUGUUCACACUGGGGCCAGGAUUUUCAUACUAAAACGUCACUGACAAUGGGGCUACUUUUCUCCUGAAUGGAAUUCUCGGGUGCCAA`: “RBNS enrichment (R)” 0.316.
For `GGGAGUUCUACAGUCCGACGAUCUGAGCCCCCCAAUCCUCCUCUGUCUUCCAGCCAACCCACAAAGCUGAAUAUAUGCAAUAUCCGUCCGUCUGUCUGGGUCAAGCUCAGCUGUGGGGAGUCCCAGUGGUGGAUGGAAUUCUCGGGUGCCAA`, “RBNS enrichment (R)” read 0.952.
`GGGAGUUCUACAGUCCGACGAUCACCUCACUUUGGCCCGUCCCCCCUCCCAACACUUCUGUAUCCUCGCCCUGCCGCCCCAGCCUGGACGCUCUGCGUGGAAGUGCGUGUUUGUAGCAGCUCGGGCCUCAUCUUGGAAUUCUCGGGUGCCAA` — result for “RBNS enrichment (R)”: 0.333.
